Measurements of several laboratories.
Protocols differ between the studies behind these lines.
lasR: Transcriptional activator protein LasR (lasR, Pseudomonas aeruginosa, UniProt P25084)
Chain of UniProt P25084 (whole entry, looked up): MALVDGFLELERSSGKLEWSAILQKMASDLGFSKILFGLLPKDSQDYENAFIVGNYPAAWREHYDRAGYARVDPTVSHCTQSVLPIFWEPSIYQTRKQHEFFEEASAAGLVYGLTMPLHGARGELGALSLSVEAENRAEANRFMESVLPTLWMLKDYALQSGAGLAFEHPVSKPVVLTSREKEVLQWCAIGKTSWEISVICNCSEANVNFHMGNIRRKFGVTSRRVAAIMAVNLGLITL
riboswitch RNA: riboswitch RNA (Mesoplasma florum)
T1: lysine riboswitch RNA, 2-aminopurine at 17 (Bacillus subtilis); chain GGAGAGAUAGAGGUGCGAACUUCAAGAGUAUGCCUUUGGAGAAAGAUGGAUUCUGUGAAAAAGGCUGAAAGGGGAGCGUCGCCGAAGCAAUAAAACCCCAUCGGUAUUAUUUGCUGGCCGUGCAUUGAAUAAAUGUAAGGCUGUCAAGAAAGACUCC; chain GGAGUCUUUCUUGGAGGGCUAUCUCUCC
T2: riboswitch RNA U39A (Bacillus); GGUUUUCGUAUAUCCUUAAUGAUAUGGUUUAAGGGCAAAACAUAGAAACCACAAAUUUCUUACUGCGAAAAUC
T3: riboswitch RNA (Mesoplasma florum); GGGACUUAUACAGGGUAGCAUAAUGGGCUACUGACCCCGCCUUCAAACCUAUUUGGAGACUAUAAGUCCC
T4: lysine riboswitch RNA (Thermotoga maritima); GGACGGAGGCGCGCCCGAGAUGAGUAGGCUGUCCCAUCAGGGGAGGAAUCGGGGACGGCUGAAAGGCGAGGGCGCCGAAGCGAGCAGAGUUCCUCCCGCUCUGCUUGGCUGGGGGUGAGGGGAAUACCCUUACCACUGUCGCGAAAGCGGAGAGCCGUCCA
T5: aptamer DNA vancomycin aptamer variant; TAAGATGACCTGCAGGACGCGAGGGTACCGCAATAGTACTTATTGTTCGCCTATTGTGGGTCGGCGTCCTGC
T6: aptamer DNA C14T; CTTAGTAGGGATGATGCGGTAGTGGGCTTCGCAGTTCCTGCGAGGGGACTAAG
T7: riboswitch RNA SAM-I metF-H2 A87G/U88C (Thermoanaerobacter tengcongensis); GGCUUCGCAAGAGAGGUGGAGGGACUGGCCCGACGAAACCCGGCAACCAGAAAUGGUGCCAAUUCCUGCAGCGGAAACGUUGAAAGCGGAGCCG

| Compound | target or system | test | test system | setting | scale | measurement | result |
| --- | --- | --- | --- | --- | --- | --- | --- |
| NC(=O)C[C@H](N)C(=O)O | T1, lysine riboswitch RNA, 2-aminopurine at 17 (Bacillus subtilis) | 2-aminopurine fluorescence titration | – | pH 8.0, no fluorescence change | – | binding | no binding |
| COc1ccccc1C(=O)C#Cc1ccc(F)c(F)c1 | lasR | receptor binding | – | concentration not given, 1.5 h, together with: OdDHL at 1:1 ratio | reference: control | binding | 60% |
| Nc1nc2c(ncn2[C@H]2C[C@H](O)[C@@H](CO)O2)c(=O)[nH]1 | T2, riboswitch RNA U39A (Bacillus) | ITC | – | KCl 50 mM | – | binding | no binding |
| O=c1ccn([C@@H]2O[C@H](CO)[C@@H](O)[C@H]2O)c(=O)[nH]1 | T3, riboswitch RNA (Mesoplasma florum) | NMR | – | – | – | binding | no binding |
| COc1cccc(C(=O)C#Cc2ccc(F)c(F)c2)c1 | lasR | receptor binding | – | concentration not given, 1.5 h, together with: OdDHL at 1:1 ratio | reference: control | binding | 71% |
| NCCCC[C@H](N)C(=O)NCC(=O)O | T4, lysine riboswitch RNA (Thermotoga maritima) | X-ray crystallography | – | – | – | binding | binds |
| COc1cc(C#CC(=O)c2ccccc2)ccc1O | lasR | receptor binding | – | concentration not given, 1.5 h, together with: OdDHL at 1:1 ratio | reference: control | binding | 54% |
| CN[C@H](CC(C)C)C(=O)N[C@H]1C(=O)N[C@@H](CC(N)=O)C(=O)N[C@H]2C(=O)N[C@H]3C(=O)N[C@H](C(=O)N[C@H](C(=O)O)c4cc(O)cc(O)c4-c4cc3ccc4O)[C@H](O)c3ccc(c(Cl)c3)Oc3cc2cc(c3O[C@@H]2O[C@H](CO)[C@@H](O)[C@H](O)[C@H]2O[C@H]2C[C@](C)(N)[C@H](O)[C@H](C)O2)Oc2ccc(cc2Cl)[C@H]1O | T5, aptamer DNA vancomycin aptamer variant | competitor, fluorescence | – | pH 7.4, MgCl2 10 mM | – | binding | binds |
| O=C(O)C/C=C/CC(=O)O | – | binding, MIDAS equilibrium dialysis LC-MS | A2AR-BRIL thermostabilized | concentration not given | reference: no-protein control | log2 fold change | -0.0945 |
| NCCCC[C@H](N)C(=O)NCC(=O)NCC(=O)O | T1, lysine riboswitch RNA, 2-aminopurine at 17 (Bacillus subtilis) | 2-aminopurine fluorescence titration | – | pH 8.0 | – | binding | no binding |
| N[C@@H](Cc1c[nH]cn1)C(=O)O | T3, riboswitch RNA (Mesoplasma florum) | NMR | – | – | – | binding | no binding |
| Cn1cc(-c2ccc(-c3cncc(Cl)c3N3CCC4(CCNC4=O)CC3)cc2)cn1 | COLO 205 | microarray, measured: LCN2 | – | concentration not given, 2 h, gene set NGAL | reference: untreated cells | fold change in expression | 2.21 |
| O=C(C#Cc1ccc(F)c(F)c1)c1ccccc1Cl | lasR | receptor binding | – | concentration not given, 1.5 h, together with: OdDHL at 1:1 ratio | reference: control | binding | 65% |
| C[C@H](N)C(=O)O | T1, lysine riboswitch RNA, 2-aminopurine at 17 (Bacillus subtilis) | 2-aminopurine fluorescence titration | – | pH 8.0, no fluorescence change | – | binding | no binding |
| C[n+]1ccc(C=C2Sc3ccccc3N2CC(=O)NCCOCCOCCOCCNC(=O)CCCC[C@@H]2SC[C@@H]3NC(=O)N[C@@H]32)c2ccccc21 | T6, aptamer DNA C14T | X-ray crystallography | – | – | – | binding | binds |
| CCC(CO)C(=O)O (centres unmarked) | – | binding, MIDAS equilibrium dialysis LC-MS | A2AR-BRIL thermostabilized | concentration not given | reference: no-protein control | log2 fold change | -0.0127 |
| C[S+](CC[C@H](N)C(=O)O)C[C@H]1O[C@@H](n2cnc3c(N)ncnc32)[C@H](O)[C@@H]1O (some centres unmarked) | T7, riboswitch RNA SAM-I metF-H2 A87G/U88C (Thermoanaerobacter tengcongensis) | X-ray crystallography | – | – | – | binding | binds |

Some of these lines once more:
| Compound | target or system | test | test system | setting | scale | measurement | result |
| --- | --- | --- | --- | --- | --- | --- | --- |
| C[C@H](N)C(=O)O | T1, lysine riboswitch RNA, 2-aminopurine at 17 (Bacillus subtilis) | 2-aminopurine fluorescence titration | – | pH 8.0, no fluorescence change | – | binding | no binding |
